# Experimental data of several laboratories.
# Parts stem from different laboratories: compare values within a part only. Substitutions count along the parent as printed.

# Sample 1
# Target: CREB3, bZIP domain (human)
# Technique: DHFR protein complementation
# Matrix: yeast
# Setting: single substitutions, most at no-binding floor
# Reference: wild-type JUN-FOS pair
# Reading: higher = stronger binding
# Starting sequence: JUN, bZIP domain (human); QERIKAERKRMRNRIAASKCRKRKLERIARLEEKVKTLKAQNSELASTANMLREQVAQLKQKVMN; partner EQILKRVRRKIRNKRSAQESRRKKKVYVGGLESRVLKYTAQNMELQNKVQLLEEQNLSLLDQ
Change,binding fitness [natural log]
K34R,-1.48
A29Y,-1.18
A29Q,-1.41
V35G,-1.47
T37F,-1.43
S43N,-1.4
A40K,-1.49
L45C,-1.56
A29W,-1.44
R53F,-1.57
V35T,-1.41
Q41W,-1.49
E54S,-1.51
E32A,-1.46
A40V,-1.38
E44H,-1.49
V35L,-1.45
L52S,-1.39
R30L,-1.4
Q55N,-1.5
A46L,-1.41
Q41D,-1.34
K34H,-1.58
R30F,-1.31
E44C,-1.16

# Sample 2
# Target: Interferon regulatory factor 5, full length, phosphomimetic (IRF5, Homo sapiens, UniProt Q13568-2, residues 1-514, K96S/S451D/S453D/S456D/S462D)
# Technique: protein-binding microarray
# Molecule type: double-stranded DNA, one strand shown
# Matrix: in vitro
# Concentration: 250 nM
# Setting: 60-bp whole probe
# With: salmon DNA 0.4 mg/ml
# Reference: random background probes
# Reading: higher = stronger binding
# Constant ends, left off below: GCCTAGCAC … GTCTTGATTCGCTTGACGCTGCTG
Oligonucleotide,log fluorescence [z-score]
TCAGGTATCGGGTTTCGGTTAGTGCTA,8.14
GACGATTTCAATTTCGAGACGTGCTAG,3.19
TCACCTGTCCTTTTCTTACTGTGCTAG,0.715
GACGGTATCGGATTGGGGACGTGCTAG,1.54
TTAGGTATCGGGACTGGGTGAGTGCTA,1.6
GTAGGTATCGACACTGGGTTAGTGCTA,2.17
TTAGATATCAGTCTCAATTAGTGCTAG,1.51
GACGGTAGCGGGACTGGGGACGTGCTA,-0.251
GACGGCCTGCTTTTCCTGACGTGCTAG,-0.352
TCAGAATTTACTTTCTACGTGTGCTAG,2.99
TCAAATTTGGAAACCGAACTGTGCTAG,0.125
TTAGGTTTCCTACTGCTTCAGTGCTAG,0.461
TCACATATACACATCTTACTGTGCTAG,0.723
TTAGGTTTCGAAACTGGGTTAGTGCTA,6.66
TTAGGTTTCGGTCTCGGTTTGTGCTAG,10.6
TTAGATTTCAGTTCCGATAAGTGCTAG,2.79
GAAGCCCTCCCTGTGGGGGGGTGCTAG,1.27
GACGAACTGATTCTCGAGACGTGCTAG,0.0689
TTGGGACTGGGGACTGGGTTAGTGCTA,-0.575

# Sample 3
# Target: Sal-like protein 4, full length isoform B (SALL4, Homo sapiens, UniProt Q9UJQ4-2, residues 1-616)
# Technique: universal PBM
# Molecule type: double-stranded DNA, one strand shown
# Matrix: in vitro
# Concentration: not given
# Setting: 8-mer, flanks averaged, mean of replicates
# Reading: higher = stronger binding
# Target sequence (chain): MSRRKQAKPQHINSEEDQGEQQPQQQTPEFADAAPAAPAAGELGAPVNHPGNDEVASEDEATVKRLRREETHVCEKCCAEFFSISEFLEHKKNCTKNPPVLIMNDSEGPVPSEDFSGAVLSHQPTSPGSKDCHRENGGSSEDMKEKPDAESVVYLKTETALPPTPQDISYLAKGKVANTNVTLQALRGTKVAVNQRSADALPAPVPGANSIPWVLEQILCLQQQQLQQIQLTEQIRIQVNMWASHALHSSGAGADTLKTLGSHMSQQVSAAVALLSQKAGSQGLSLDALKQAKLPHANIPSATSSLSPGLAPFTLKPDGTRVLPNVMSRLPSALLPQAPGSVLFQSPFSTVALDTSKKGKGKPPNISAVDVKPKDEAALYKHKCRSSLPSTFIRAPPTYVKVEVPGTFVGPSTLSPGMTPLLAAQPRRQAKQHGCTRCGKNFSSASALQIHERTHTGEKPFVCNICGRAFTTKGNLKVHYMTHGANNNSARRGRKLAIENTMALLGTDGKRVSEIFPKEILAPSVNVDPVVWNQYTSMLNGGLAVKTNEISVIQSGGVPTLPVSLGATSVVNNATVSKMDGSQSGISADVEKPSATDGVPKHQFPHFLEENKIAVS
Oligonucleotide,E-score
ACGAGAGT,0.0472
GCAGTCAA,-0.154
CGCCTAGC,-0.279
ATATGCGG,0.263
CAGGAGTC,-0.14
ATGTAGAA,0.165
TGCGTCAA,0.00994
ACCTCTCT,-0.0899
ATTGAACG,0.158
CGTGATAA,0.159
CGGAGCAG,-0.18
CAGCACTC,-0.0743
ATTCTTGA,0.209
AAAATGCT,0.126
ATTAGTAC,0.239
ACGCAGCT,-0.214
ACCTCCTG,-0.084
ATGGGTGG,-0.0121
GTAGAAAA,0.135
CACTGTTC,0.00957
CCGCCAAC,-0.313
CCCAACGG,-0.291
GAATAAAA,0.236

# Sample 4
# Target: PABPC1L2, full length, GST fusion (mouse, UniProt A0ABA7IW68)
# Technique: RNAcompete
# Molecule type: RNA
# Matrix: in vitro
# Concentration: 20 nM
# Setting: 7-mer, probes averaged, single round
# Reference: mean of 7-mers
# Reading: higher = stronger binding
# Construct (chain): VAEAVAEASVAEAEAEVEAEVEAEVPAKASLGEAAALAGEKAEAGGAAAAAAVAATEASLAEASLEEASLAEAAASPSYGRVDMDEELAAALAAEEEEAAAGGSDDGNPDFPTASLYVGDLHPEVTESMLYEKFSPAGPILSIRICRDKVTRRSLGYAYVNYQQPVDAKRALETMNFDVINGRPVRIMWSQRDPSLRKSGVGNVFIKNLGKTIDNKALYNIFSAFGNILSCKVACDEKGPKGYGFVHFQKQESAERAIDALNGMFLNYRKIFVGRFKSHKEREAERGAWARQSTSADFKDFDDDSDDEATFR
Oligonucleotide,7-mer Z-score
CUACCCG,-0.295
GCACGAU,-0.0283
CAGCAGA,0.186
GGCCGUA,-0.0391
CUACAAC,-0.191
AAAAUGC,5.43
UCGAUAA,0.128
AGCCUUU,-0.244
GCUUCUA,-0.235
AUGACGC,-0.124
UCCCCUG,-0.385
UUAUUCA,-0.173
ACGUGGU,-0.128
ACUGCGU,-0.262
CAUACAC,-0.0863
UUCCGUC,-0.492
GGCAUAG,-0.0699
GUCGAGG,0.046
CGACAAA,0.802
CUGCAUA,-0.142
CAGUCGC,-0.2

# Sample 5
# Target: RING finger protein unkempt homolog, zinc fingers 1-6, GST-SBP tag (UNK, Homo sapiens, UniProt Q9C0B0, residues 30-357)
# Sequence of UniProt Q9C0B0 (30-357, looked up): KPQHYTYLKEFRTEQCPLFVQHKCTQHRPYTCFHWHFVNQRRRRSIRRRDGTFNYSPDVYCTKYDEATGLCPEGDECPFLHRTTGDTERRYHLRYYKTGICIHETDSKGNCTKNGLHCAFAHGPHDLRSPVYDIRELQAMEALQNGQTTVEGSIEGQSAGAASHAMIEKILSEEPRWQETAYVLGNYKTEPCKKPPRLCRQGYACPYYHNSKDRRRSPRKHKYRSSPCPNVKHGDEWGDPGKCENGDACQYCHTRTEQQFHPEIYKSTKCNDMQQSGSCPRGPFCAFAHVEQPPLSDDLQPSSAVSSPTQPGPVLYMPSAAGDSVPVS
# Technique: RNA Bind-n-Seq
# Molecule type: RNA
# Matrix: in vitro
# Concentration: not given
# Setting: RNA with constant flanks, human-mouse chimeric sites, ends assumed
# Reference: input RNA pool
# Reading: higher = stronger binding
# Constant ends, left off below: GGGAGUUCUACAGUCCGACGAUC … CAACAGAGGAUUGAGCAUCA
Oligonucleotide,bound/input enrichment [ratio]
AUUGUUGAAGCUAACCCACUUUUAGAAGCAUUUGGAAAUGCGAAGACUGUUCGCAACAAUAAUAGCAGUCGAUUUGGAAAAUUUGUAGAAAUUCAUUUCAAUGAAAAGAGUUCGGUUGUU,1.8
GAUCCACAGUGGUCUGAGGAACAGCUGAUUGCUGCAAAAUUCUGUUUUGCUGGCCUUGUUAUAGGGCAGACUGAAGUGGAUAUCAUGAGUCAUGCCACACAAGCUAUUUUUGAAAUUCUG,0.323
AACUUCGUGCAUCGGUUUCCCUUUGUAGCUGUUUCAAUUGGCUUUGCUGUGAAUAAAGAGAUGGAGUUUGGAAUUGUGUACAGCUGUGUGGAAGAUAAGAUGUACACUGCCAGAAAAGGG,0.46
GCGGCAGAAUCAUGGAGGACAUAAUGCAGCUCCCCAAAGCGCGCGUCAACGCCAGCAUGUUACCACAAUUCAUCGACCGGCCCGUGUGCUUCGUGGGGAAGCUGGAAAAGAUUCAUCCCA,0.133
ACCUCCCCCUCCCGCCUCACCCCACCCAAGAAAGAAAGAAAGUUUUUGGCUUUUUUUUUCCUUCCCCAUACAAAGUGAUUACAGUUUCCCCCGCAAGGGUCUAUCGAAGGGCUUGACGGA,0.599
CACACCCUCUUCUGCGGCACCCUCAUUUUGCAGGCCCGGGCCUAUGUGGGACCGCACGUCCUGGCAGUGGUGACCCGCACAGGGUUCUGCACGGCAAAAGGGGGCCUGGUGAGCUCCAUC,0.144
GCUCUUGGGAAUGUAAUCAGCGCCUUGGGGGACAAGAGCAAGAGAGCCACACAUGUCCCUUACAGAGACUCUAAGCUGACAAGACUCUUGCAGGAUUCCCUUGGGGGUAACAGCCAAACC,0.125
UUGAAAACUGAUUCAAGUAAGUUUGAGUAUCACAAUGUUAGCUUUCUAAUUCCAUAAAGAUAGUUUUUUUUUACAGUUUAUAAUCUGACAUCACCCCAGCGCCAUUUGUAAAGAGCAACU,8.46
UUUCUACUGCAGCAAACGAUGCUAAGAAUUAAGGAUCCUAAGAAGUCCCUGGAUUUUUAUACGAGGGUUCUUGGACUGACCCUCCUGCAAAAAUGUGACUUCCCUGCUAUGAAGUUCUCG,0.328
AAAGUGGACUAUGGCGAGUACAUGGAUAAAAACAAUGUGAGGCGGCAAGCAACAACAAUCAUAGCUGAUAAUAUUAUAUUUCUGAGUGACCAGACGAAAGAAAAGGCAUAGAACGGAUGA,5.68
GAGUCGAGCAAACUUGAAACAAUUCGUUUUACAAAAACCUCAGUGUUUUUACUUGCCGCGAUAGCAUUGGGGUUUUAUAGGUUCUGGAAGGAGAACUGACGAUGAUGCUGCCGCUGCUGC,0.456

# Sample 6
# Target: CCNA1, cyclin fold, Cln2 fusion (human)
# Technique: yeast growth competition, sequencing
# Matrix: yeast
# Setting: weak parent motif
# Reference: not given
# Reading: higher = stronger binding
# Starting sequence: INSM1 docking peptide (human); PKAIRKLHFEDEV
Change,normalised enrichment score
PWAIRKLHFEDEV [K2W],-0.0843
PKAIQKLHFEDEV [R5Q],0.156
PKAIRKLHFPDEV [E10P],0.636
PKAIRGLHFEDEV [K6G],-0.00132
PKAPRKLHFEDEV [I4P],0.397
PKAIRKLHFMDEV [E10M],0.245
PKAIRRLHFEDEV [K6R],0.848
PKAIRKGHFEDEV [L7G],-0.244
PKATRKLHFEDEV [I4T],0.526
PKADRKLHFEDEV [I4D],-0.139
PGAIRKLHFEDEV [K2G],0.403
PKAIRKSHFEDEV [L7S],0.32
PKAIRKLHFLDEV [E10L],0.128
PKAIRKLHFEDQV [E12Q],0.501
PKAIRKLHKEDEV [F9K],-0.559
PKAIRKIHFEDEV [L7I],0.406
PKAIRKYHFEDEV [L7Y],0.0947
PKAIRKLHSEDEV [F9S],0.101
PKAIRKLHFTDEV [E10T],0.391
PDAIRKLHFEDEV [K2D],-0.143
PKAHRKLHFEDEV [I4H],1.01
PKAIRKLHREDEV [F9R],0.199
PMAIRKLHFEDEV [K2M],0.184
PKAIRKLHFEDTV [E12T],0.634
PKAIRKLTFEDEV [H8T],0.778

# Mixed results
Molecule,target,test,system,setting,scale,measurement,result
"PhoQ, residues 284 288 289 292 302 303 NLGVHL","PhoP, residues 12 14 15 18 19 LWHVM (Escherichia coli, UniProt P23836)","Sort-seq, refers to: YFP reporter",E. coli,"PhoQ-PhoP variant library, with: 10 µM Mg2+","reference: high Mg2+ state, higher = stronger signaling",fold induction,2.74

# For quick reference, copied from above (sample 2):
Oligonucleotide,log fluorescence [z-score]
TCAGAATTTACTTTCTACGTGTGCTAG,2.99
TCACATATACACATCTTACTGTGCTAG,0.723
TCACCTGTCCTTTTCTTACTGTGCTAG,0.715
TTAGGTTTCGGTCTCGGTTTGTGCTAG,10.6
TCAAATTTGGAAACCGAACTGTGCTAG,0.125
TTAGGTTTCCTACTGCTTCAGTGCTAG,0.461
TTAGGTTTCGAAACTGGGTTAGTGCTA,6.66
TTAGATTTCAGTTCCGATAAGTGCTAG,2.79
GACGGTAGCGGGACTGGGGACGTGCTA,-0.251
GACGGCCTGCTTTTCCTGACGTGCTAG,-0.352
TCAGGTATCGGGTTTCGGTTAGTGCTA,8.14
GTAGGTATCGACACTGGGTTAGTGCTA,2.17
TTGGGACTGGGGACTGGGTTAGTGCTA,-0.575
GACGAACTGATTCTCGAGACGTGCTAG,0.0689
GAAGCCCTCCCTGTGGGGGGGTGCTAG,1.27
TTAGGTATCGGGACTGGGTGAGTGCTA,1.6
GACGGTATCGGATTGGGGACGTGCTAG,1.54
GACGATTTCAATTTCGAGACGTGCTAG,3.19
TTAGATATCAGTCTCAATTAGTGCTAG,1.51
